Measurements collected from several papers.
Parts stem from different laboratories: compare values within a part only.

Set 1 — technique: aptamer microarray, sandwich; form: DNA with 2'F-ANA; sample: in vitro; tested at: 200 nM; added: Cy3 exosite-II aptamer, 400 nM; direction: higher = stronger binding; strand: GGTTGGTGTGGTTGG
Target: Prothrombin, mature alpha-thrombin (F2, Homo sapiens, UniProt P00734)
Setting: whole 15-mer aptamer, many near background
| Modification | mean fluorescence intensity [a.u.] |
| --- | --- |
| 2'F-ANA at 2 7 10 13 14 | 88.8 |
| 2'F-ANA at 5 6 10 13 | 45 |
| 2'F-ANA at 4 5 8 9 10 12 | 50.1 |
| 2'F-ANA at 1 4 6 7 8 10 11 12 14 | 49 |
| 2'F-ANA at 2 3 4 5 6 7 9 10 | 48.1 |
| 2'F-ANA at 1 3 5 6 8 9 11 12 13 14 15 | 52 |
| 2'F-ANA at 2 3 4 6 7 9 11 | 428 |
| 2'F-ANA at 5 7 10 11 13 14 | 56.1 |
| 2'F-ANA at 2 3 8 9 | 870 |
| 2'F-ANA at 1 5 9 10 11 13 15 | 45.9 |
| 2'F-ANA at 3 5 6 8 9 11 13 15 | 78.7 |
| 2'F-ANA at 2 3 4 5 7 8 9 12 13 14 | 56.6 |
| 2'F-ANA at 2 3 5 6 7 10 12 | 57.3 |
| 2'F-ANA at 1 2 4 10 12 13 15 | 56.1 |
| 2'F-ANA at 2 3 6 9 12 15 | 1070 |
| 2'F-ANA at 1 3 9 10 11 13 14 | 74.8 |
| 2'F-ANA at 1 3 4 5 6 8 9 10 11 13 | 44.5 |
| 2'F-ANA at 1 2 4 5 6 7 9 13 14 | 48.2 |
| 2'F-ANA at 1 2 3 9 11 13 15 | 174 |
| 2'F-ANA at 2 4 5 7 8 9 10 13 | 42.9 |

Set 2 — technique: protein binding microarray; form: double-stranded DNA, one strand shown; sample: in vitro; tested at: not given; baseline: not given; direction: higher = stronger binding
Target: Histone acetyltransferase KAT6A, winged helix 1, GST fusion (KAT6A, Homo sapiens, UniProt Q92794, residues 1-85)
Setting: 8-mer, flanks averaged, mean of 2 arrays, mostly near background
Residues (chain): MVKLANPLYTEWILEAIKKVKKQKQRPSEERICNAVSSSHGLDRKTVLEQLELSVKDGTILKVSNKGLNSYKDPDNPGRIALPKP
| Strand | E-score |
| --- | --- |
| TGAGGTAA | -0.178 |
| GACCCTAA | -0.161 |
| AGCAAAAT | -0.103 |
| AGCCAGCA | -0.125 |
| CAACGCCA | -0.101 |
| AGGTAACT | -0.125 |
| AAGCCCTA | -0.0484 |
| AGGCGCGG | 0.375 |
| CTCAAATC | -0.108 |
| AATAGGTG | -0.224 |
| GACTTAGC | -0.00722 |
| CTCGCTTA | 0.0966 |
| AAATTCTA | -0.18 |
| CAGAGCGG | 0.284 |
| TCGTAACA | 0.0481 |
| GCGGCACA | 0.261 |
| GCCTAACA | -0.05 |
| CTCGATTA | -0.156 |
| ACACCTCC | -0.0098 |
| CGGCTTAA | 0.351 |
| GGGACTGA | -0.0279 |
| CGGACCGA | 0.155 |
| GTGGTGCA | -0.14 |
| ACTAACTA | -0.0719 |
| AACATTTA | 0.0337 |

Set 3 — technique: RNA Bind-n-Seq; form: RNA; sample: in vitro; tested at: 1 µM; setting: whole 134-nt RNA, ends assumed; added: 150 mM KCl; baseline: input library; direction: higher = stronger binding
Target: Ras GTPase-activating protein-binding protein 1, C-terminal RGG region (G3BP1, Homo sapiens, UniProt Q13283)
Chain of UniProt Q13283 (whole entry, looked up): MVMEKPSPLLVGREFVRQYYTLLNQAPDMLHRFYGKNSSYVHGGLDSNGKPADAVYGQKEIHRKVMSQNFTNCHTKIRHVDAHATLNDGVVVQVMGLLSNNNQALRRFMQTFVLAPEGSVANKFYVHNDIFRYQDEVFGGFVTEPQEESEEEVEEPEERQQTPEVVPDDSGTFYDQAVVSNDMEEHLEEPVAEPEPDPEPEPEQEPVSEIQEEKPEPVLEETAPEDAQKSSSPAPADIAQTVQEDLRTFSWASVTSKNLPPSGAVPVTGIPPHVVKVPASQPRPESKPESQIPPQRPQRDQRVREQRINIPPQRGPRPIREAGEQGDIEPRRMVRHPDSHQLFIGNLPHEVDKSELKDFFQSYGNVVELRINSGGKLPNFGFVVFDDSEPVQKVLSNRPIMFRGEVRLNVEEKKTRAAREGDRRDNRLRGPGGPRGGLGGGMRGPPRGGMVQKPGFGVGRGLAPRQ
Constant ends, left off below: GGGAGUUCUACAGUCCGACGAUC … UGGAAUUCUCGGGUGUCAAGG
| Strand | log2 enrichment |
| --- | --- |
| AAGUCCUGUGCUACACAUCGUAUGUACCGAAUCGGGGAAAAGGGAAAAGGGAAAAGGAAAGUAUUAUGUUACGCCGUUCGGAUCUGCACU | -1.37 |
| ACCAUACAGGUGGGCAUCUUUGGGAAGUGGGGCAAGGGGGGGAUAGGGAGGGGGGUAACACUUUGGGAACAGGUGGUCCCAGGUCGUUUC | -1.09 |
| UUGCAGCAACUGCUACCAGCCUCCCAGUCCACACAGCUGCCAUGCUCAAGUUCCCCUCAGGAGACCACCCAGUCUCGCCCUAUGCCGCCG | 0.217 |
| UCCUCAAGUCCUGUGCUACACAUCGUAUGUACCGAAUCGGGGCGGCGGCGGGAAAGUAUUAUGUUACGCCGUUCGGAUCUGCACUUCCAG | -0.595 |
| GUCCUGUGCUACACAUCGUAUGUACCGAAUCGGGAAAAAGGGUUUUUGGGAAAAAGGGAAAGUAUUAUGUUACGCCGUUCGGAUCUGCAC | -0.702 |
| GGCAAGAGGAGGAACGACGUAGAAGAGAGGAAGAGAUGAUGAUUCGUCAACGUGAGAUGGAAGAACAAAUGAGGCGCCAAAGAGAGGAAA | -0.483 |
| UGGCCCUCGUGGCAUGCGGGGAGGAAGAGGUGGCCUCAUGGAUCGUGGUGGUCCCGGUGGAAUGUUCAGAGGUGGCCGUGGUGGAGACAG | 1.96 |
| UGGCCCUGGUGGCAUGCGGGGAGGAAGAGGUGGCCUCAUGGAUCGUGGUGAUCCCGGUGGAAUGUUCAGAGGUGGCCGUGGUGGAGACAG | 1.48 |
| CUCAAGUCCUGUGCUACACAUCGUAUGUACCGAAUCGGGGCGGGCGGGGCGGGGAAAGUAUUAUGUUACGCCGUUCGGAUCUGCACUUCC | 2.03 |
| AGUCCUGUGCUACACAUCGUAUGUACCGAAUCGGAAAAAAAGGAAAAAAAGGAAAGGAAAGUAUUAUGUUACGCCGUUCGGAUCUGCACU | -2.21 |
| AAGUCCUGUGCUACACAUCGUAUGUACCGAAUCGGGAAAGGGAAAAAAAGGGUGGGAAAGUAUUAUGUUACGCCGUUCGGAUCUGCACUU | 0.904 |
| AGUCCUGUGCUACACAUCGUAUGUACCGAAUCGGGUUUUGGGUUUUGGGGUUUUGGGAAAGUAUUAUGUUACGCCGUUCGGAUCUGCACU | 0.662 |
| CACAGACCACACGCACCCACACAGACACAGAGGGAAGGGGUUGGGAUGGGGACAGGGUGCACAGCAGGGCGGGGUAGGACCCCAGCCCCU | -0.403 |
| UGGCCCUGGUGGCAUGCGGGGAGGAAGAGGUGGCCUCAUGGAUCGUGUUGGUCCCGGUGGAAUGUUCAGAGGUGGCCGUGGUGGAGACAG | 2.07 |

Set 4 — technique: RNA Bind-n-Seq; form: RNA; sample: in vitro; tested at: 100 nM; baseline: input RNA pool; direction: higher = stronger binding
Target: RING finger protein unkempt homolog, zinc fingers 1-6, SBP tag (UNK, Homo sapiens, UniProt Q9C0B0, residues 30-357)
Chain of UniProt Q9C0B0 (30-357, looked up): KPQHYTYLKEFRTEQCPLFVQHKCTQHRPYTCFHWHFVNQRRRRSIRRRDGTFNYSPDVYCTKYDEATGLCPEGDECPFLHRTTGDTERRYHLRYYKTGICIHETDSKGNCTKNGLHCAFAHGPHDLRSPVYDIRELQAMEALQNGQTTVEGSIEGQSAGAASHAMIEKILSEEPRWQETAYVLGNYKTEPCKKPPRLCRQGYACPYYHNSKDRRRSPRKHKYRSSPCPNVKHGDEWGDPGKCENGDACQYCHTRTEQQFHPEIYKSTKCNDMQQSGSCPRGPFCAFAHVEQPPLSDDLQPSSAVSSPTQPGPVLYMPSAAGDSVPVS
Setting: RNA with constant flanks, vertebrate orthologous sites, ends assumed
Constant ends, left off below: GGGAGUUCUACAGUCCGACGAUC … CAACAGAGGAUUGAGCAUCA
| Strand | bound/input enrichment |
| --- | --- |
| AGAAAAUUUUAGCCAGGAAUCUGAAGGUAGAAAUACAGGACCGUGGUUAUCUUCCUCCCUUAGAAAUAGAUGCACACCUUUGUUCUCUAGAAGGAGACGAGAGGGAAGAGAUGAAUCUUC | 1.09 ratio |
| UAGUGCUUAAGCCAAGAACAGUUCUAAAAUGCUAUUUAUUUGUGUCUGUAAGUUUGUACAAUAAUACUAUCAACCUCACUGUUCUUGAAUUUUGAUUUUUUUGGUGGGGAGGAAUAAGUU | 1.42 ratio |
| GAAGACUUUGUGUGCCAUAUUACCCCAAAAAACAUAAAGCUACUUUUUUACUUGCAUAUUUUUCAAAGUACCUGAAAAAUGGUUUUUCUCCUUUCUAAUGGUCAAAAGAAGGUACAUUUC | 0.522 ratio |
| UACAGGGAAAGAGCUCACAAACUGAAUGGAAAACUAUUAAAAGAGUUUCUAGUAGUAAGGAAAGAUUAGGACAACUUUACAAAUAAACAAUUACAAAUCAAAGAAAUAGGACAGUAAAAC | 1.24 ratio |
| UCCUUCUAUUCAGGGUUGGGCUCAUCUGUAAAAGAUGUAAUAUUUGCAACAACUGUAUUAUAUCUAGUUAAGUUGAGUUGAAUAUUUUUUUAUUAGCCUGUAAAUAAAGAUGGCAUCUUU | 0.27 ratio |
| UAAUUUUAGGAUGAAGCUAUUAAAGCAGGUGUCACGAGUGUGGCAAACAGAUGGACUGAACUCUUGUUACUAUAACCUGCUGUCUGUGAAACACAAUCCUUUAUAUAUCAAUAUCACAGU | 0.608 ratio |
| GAUAUUGAAUAGUAUUAAACAUUUUCGUCUUCCUUUAUCUUUUAUCCCCUACCUAAUAUUUAGUCUACUUUUAAAAAUUCCAGACUUCACUGCUCUUUGAACUGAUAAUUCCAGUUUUCA | 2.09 ratio |
| AGAGCUCACAAACUGAAAGGAAAACUAUUAAAGAGUUUCUAAUAUUAACUAUUAAAAAGCUAGGAAAGAUUAGGACAAUUUUACAAAUGAGCAAUUAAAAAGAAAAGGAUCUGGGAACUA | 0.419 ratio |
| GCAAAUCCAAUCACUGUGAUAUUUAAAAUAUGCACAGUCCUCAUUCUUUCUCCAUGAUCCUAGUAUUUUUCUAGCUGUAUCUUUGUAUCUCAUACUGUUAUUUAUCAGUUUUGUUCCCCU | 0.957 ratio |
| CAGGAAUGGCCCCAAUCCCACCUCUGUUUAUUCUGUAAACUACAACCUGUAAAUAACGUUUAGGAUUCCUAUUGUAUCAAAAUUAAUUUUUAUGAAAUAAAUUAUAUUUCCUAGUCUAAU | 0.756 ratio |
| GGGAAAUAUUGAAUAGUAUUCAGCAUUUUUGUCUUCCUUUAUUUUUUCUCUCUGAAUACCUGGUGUACUUUUUAAAAUUUCAGACUUCACUGCUAUCUGAAUUGACUAUUUCAAUUUUCA | 0.422 ratio |

Set 5 — technique: protein-binding microarray; form: double-stranded DNA, one strand shown; sample: in vitro; tested at: not given; direction: higher = stronger binding
Target: Max dimerization protein 1, bHLH-zipper, MAX partner unstated (MXD1, Homo sapiens, UniProt Q05195, residues 56-136)
Setting: k-mer, scored over probes, only values ≥0.25
Target sequence (chain): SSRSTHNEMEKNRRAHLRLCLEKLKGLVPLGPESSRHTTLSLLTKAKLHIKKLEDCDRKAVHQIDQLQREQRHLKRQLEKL
| Strand | E-score |
| --- | --- |
| AGTAGGGG | 0.259 |
| GCGTGCGA | 0.362 |
| GATCACGC | 0.276 |
| CACGCGAA | 0.291 |
| CTCCCCCC | 0.286 |
| GCGTGCTA | 0.348 |
| ACGCCACG | 0.335 |
| CCACATGG | 0.477 |
| AAACATGC | 0.396 |
| CTCGTGTA | 0.427 |
| CCCATGCA | 0.327 |
| GGCATGCC | 0.396 |
| CATATGCG | 0.323 |
| ACGTGCTA | 0.398 |
| GGGGGCAA | 0.274 |
| ATGTGATG | 0.263 |
| ACCGCGTG | 0.454 |
| CATATGGG | 0.345 |
| CATACACG | 0.331 |
| CGTGACCA | 0.298 |
| CCTCCCCA | 0.375 |

A few entries again (set 3):
| Strand | log2 enrichment |
| --- | --- |
| AAGUCCUGUGCUACACAUCGUAUGUACCGAAUCGGGGAAAAGGGAAAAGGGAAAAGGAAAGUAUUAUGUUACGCCGUUCGGAUCUGCACU | -1.37 |
| ACCAUACAGGUGGGCAUCUUUGGGAAGUGGGGCAAGGGGGGGAUAGGGAGGGGGGUAACACUUUGGGAACAGGUGGUCCCAGGUCGUUUC | -1.09 |
| UUGCAGCAACUGCUACCAGCCUCCCAGUCCACACAGCUGCCAUGCUCAAGUUCCCCUCAGGAGACCACCCAGUCUCGCCCUAUGCCGCCG | 0.217 |
| UCCUCAAGUCCUGUGCUACACAUCGUAUGUACCGAAUCGGGGCGGCGGCGGGAAAGUAUUAUGUUACGCCGUUCGGAUCUGCACUUCCAG | -0.595 |
| GUCCUGUGCUACACAUCGUAUGUACCGAAUCGGGAAAAAGGGUUUUUGGGAAAAAGGGAAAGUAUUAUGUUACGCCGUUCGGAUCUGCAC | -0.702 |
| GGCAAGAGGAGGAACGACGUAGAAGAGAGGAAGAGAUGAUGAUUCGUCAACGUGAGAUGGAAGAACAAAUGAGGCGCCAAAGAGAGGAAA | -0.483 |
| UGGCCCUCGUGGCAUGCGGGGAGGAAGAGGUGGCCUCAUGGAUCGUGGUGGUCCCGGUGGAAUGUUCAGAGGUGGCCGUGGUGGAGACAG | 1.96 |
| UGGCCCUGGUGGCAUGCGGGGAGGAAGAGGUGGCCUCAUGGAUCGUGGUGAUCCCGGUGGAAUGUUCAGAGGUGGCCGUGGUGGAGACAG | 1.48 |
| CUCAAGUCCUGUGCUACACAUCGUAUGUACCGAAUCGGGGCGGGCGGGGCGGGGAAAGUAUUAUGUUACGCCGUUCGGAUCUGCACUUCC | 2.03 |
| AGUCCUGUGCUACACAUCGUAUGUACCGAAUCGGAAAAAAAGGAAAAAAAGGAAAGGAAAGUAUUAUGUUACGCCGUUCGGAUCUGCACU | -2.21 |
| AAGUCCUGUGCUACACAUCGUAUGUACCGAAUCGGGAAAGGGAAAAAAAGGGUGGGAAAGUAUUAUGUUACGCCGUUCGGAUCUGCACUU | 0.904 |
| AGUCCUGUGCUACACAUCGUAUGUACCGAAUCGGGUUUUGGGUUUUGGGGUUUUGGGAAAGUAUUAUGUUACGCCGUUCGGAUCUGCACU | 0.662 |
